Assay results collected from several papers.
Each numbered part is a random draw from the data of one study; scales do not carry over between parts.

Series 1
Target: Histone acetyltransferase KAT6A, both winged helices, GST fusion (KAT6A, Homo sapiens, UniProt Q92794, residues 1-181)
Technique: protein binding microarray
Molecule type: double-stranded DNA, one strand shown
Medium: in vitro
Tested at: not given
Notes: 8-mer, flanks averaged, mean of 2 arrays, mostly near background
Relative to: not given
Reading: higher = stronger binding
Target sequence (chain): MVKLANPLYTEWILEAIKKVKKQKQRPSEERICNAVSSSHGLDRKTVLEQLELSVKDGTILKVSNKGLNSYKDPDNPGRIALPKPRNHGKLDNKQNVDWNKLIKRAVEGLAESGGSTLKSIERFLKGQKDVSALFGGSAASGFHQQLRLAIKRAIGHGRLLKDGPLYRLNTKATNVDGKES
| Oligonucleotide | E-score |
| --- | --- |
| AAGCAAAT | -0.169 |
| CTACAAAC | -0.0941 |
| AACAATGG | -0.109 |
| CGGTTGTA | 0.219 |
| CAGATCGC | 0.145 |
| ATTTAAAT | -0.0658 |
| GAGTGCCA | -0.131 |
| GTTATGCA | -0.105 |
| CCCGGAAG | 0.0797 |
| GAAGGAGA | -0.0787 |

Series 2
Target: Fragile X messenger ribonucleoprotein 1, C-terminal low-complexity region (Fmr1, Mus musculus, UniProt P35922)
Technique: RNA Bind-n-Seq
Molecule type: RNA
Medium: in vitro
Tested at: 200 nM
Notes: whole 134-nt RNA, ends assumed
Together with: 150 mM LiCl
Relative to: input library
Reading: higher = stronger binding
Each molecule: 7-deaza-guanosine replaces G
Constant ends, left off below: GGGAGUUCUACAGUCCGACGAUC … UGGAAUUCUCGGGUGUCAAGG
| Oligonucleotide | log2 enrichment |
| --- | --- |
| ACCAUGCAGGUGGGCAUCUUUGGGAAGUGGGGCAAGGGGGGGAUAGGGAGGGGGGUAACACUUUGGGAACAGGUGGUCCCACGUCGUUUC | 1.35 |
| ACCAUGCAGGGGGGCAUCUUUGGGAAGUGGGGCAAGGGGGGGAUAGGGAGGGGGGUAACACUUUGGGAACAGGUGGUCCCAGGUCGUUUC | 1.67 |
| UAGCUAAACUAAUGUCAACUUAUUUCCUUUUUUCCUUUAGCCACCAUCAAAGAACAGACGAGAGAGAACAGAACUGAAGCCUGAUUUCUU | -1.28 |
| AGUCCUGUGCUACACAUCGUAUGUACCGAAUCGGGUUUUUGGGAGGGAAAAAAAGGGAAAGUAUUAUGUUACGCCGUUCGGAUCUGCACU | -1.51 |
| CAAGUCCUGUGCUACACAUCGUAUGUACCGAAUCGGGAAAGGGAAAGGGAAAGGGGAAAGUAUUAUGUUACGCCGUUCGGAUCUGCACUU | -0.928 |
| CAAGUCCUGUGCUACACAUCGUAUGUACCGAAUCGGUUUUUGGUUUUUGGUUUGGAAAGUAUUAUGUUACGCCGUUCGGAUCUGCACUUC | -2.05 |
| CCUCAAGUCCUGUGCUACACAUCGUAUGUACCGAAUCGGAAAAAGGAGGAGGAAAGUAUUAUGUUACGCCGUUCGGAUCUGCACUUCCAG | -0.488 |

Series 3
Target: Interferon regulatory factor 7, full length, phosphomimetic (IRF7, Homo sapiens, UniProt Q92985, residues 1-503, S101K/S471D/S472D/S475D/S476D/S477D/S483D/S484D/S487D)
Technique: protein-binding microarray
Molecule type: double-stranded DNA, one strand shown
Medium: in vitro
Tested at: 250 nM
Notes: 60-bp whole probe
Together with: salmon DNA 0.4 mg/ml
Relative to: random background probes
Reading: higher = stronger binding
Constant ends, left off below: GCCTAGCAC … GTCTTGATTCGCTTGACGCTGCTG
Target sequence (chain): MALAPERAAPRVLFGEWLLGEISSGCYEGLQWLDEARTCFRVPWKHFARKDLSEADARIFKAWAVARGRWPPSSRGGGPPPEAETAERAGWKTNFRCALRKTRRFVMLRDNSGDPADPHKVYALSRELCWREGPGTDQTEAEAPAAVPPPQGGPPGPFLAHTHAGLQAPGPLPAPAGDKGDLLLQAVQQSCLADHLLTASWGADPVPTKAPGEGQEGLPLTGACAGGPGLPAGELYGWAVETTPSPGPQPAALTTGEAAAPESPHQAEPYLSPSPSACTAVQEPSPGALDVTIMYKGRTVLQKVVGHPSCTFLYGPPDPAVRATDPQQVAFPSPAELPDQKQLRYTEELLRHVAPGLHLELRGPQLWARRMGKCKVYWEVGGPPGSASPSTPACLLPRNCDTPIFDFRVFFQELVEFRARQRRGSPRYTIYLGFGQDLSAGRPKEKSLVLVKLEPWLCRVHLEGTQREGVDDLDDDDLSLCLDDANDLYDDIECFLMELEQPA
| Oligonucleotide | log fluorescence [z-score] |
| --- | --- |
| TCACCTTTATGTACTCTCACTGTGCTA | 0.455 |
| TTAGATTTCAGGTATCGATTAGTGCTA | 1.52 |
| GACGGTTTCAGGACTGGGGACGTGCTA | 0.752 |
| GATGGTTTCGGGTATCGGGACGTGCTA | 7.98 |
| TAGGCTCTGTGCTTTCCTGATGTGCTA | -0.538 |
| TTAGGACCGGACTTTCGGTTAGTGCTA | 1.58 |
| TCAGCTCTTTCGTTACTTACTGTGCTA | 0.61 |
| TCATTTAGAAATTTCTTACTGTGCTAG | 1.63 |
| TTAGATTTCGGCACTGGATTAGTGCTA | 0.0386 |
| TTAGGTTTCATTTCCCTTTAGTGCTAG | 6.24 |
| CTAGAGATTTTTCTCAACCGGTGCTAG | -0.019 |

Other studies, line by line
| Molecule | target | assay | system | setting | scale | measurement | value |
| --- | --- | --- | --- | --- | --- | --- | --- |
| PhoQ, residues 284 288 289 292 302 303 TYGVAM | PhoP, residues 12 14 15 18 19 GHCSL (Escherichia coli, UniProt P23836) | Sort-seq, item: YFP reporter | E. coli | PhoQ-PhoP variant library, together with: 10 µM Mg2+ | relative to: high Mg2+ state, higher = stronger signaling | fold induction | 18.2 |

Excerpt of the above (series 3):
| Oligonucleotide | log fluorescence [z-score] |
| --- | --- |
| GATGGTTTCGGGTATCGGGACGTGCTA | 7.98 |
| TAGGCTCTGTGCTTTCCTGATGTGCTA | -0.538 |
| TTAGGACCGGACTTTCGGTTAGTGCTA | 1.58 |
| TCAGCTCTTTCGTTACTTACTGTGCTA | 0.61 |
